Measured values of several laboratories.
Compare with care: the assays were run in different laboratories. “And” joins repeats or separate records; there may be more than shown. Numbers after ± are the reported error.
PFF0160c E182D: Dihydroorotate dehydrogenase (quinone), mitochondrial (PFF0160c, Plasmodium falciparum, UniProt Q08210, E182D)
ACHE: Acetylcholinesterase (ACHE, Homo sapiens, UniProt P22303)
UniProt P27361, sequence (whole entry, looked up): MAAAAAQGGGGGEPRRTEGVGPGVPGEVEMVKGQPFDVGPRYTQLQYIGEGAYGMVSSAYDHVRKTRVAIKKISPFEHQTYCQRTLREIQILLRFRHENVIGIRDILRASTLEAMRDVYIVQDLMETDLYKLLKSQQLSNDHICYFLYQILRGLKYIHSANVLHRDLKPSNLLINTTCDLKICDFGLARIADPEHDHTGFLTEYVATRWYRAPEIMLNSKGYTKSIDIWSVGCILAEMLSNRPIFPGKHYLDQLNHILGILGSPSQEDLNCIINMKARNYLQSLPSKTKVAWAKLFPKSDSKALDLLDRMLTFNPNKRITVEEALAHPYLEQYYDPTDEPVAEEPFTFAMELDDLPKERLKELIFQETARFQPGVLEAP
UniProt P22303, sequence (whole entry, looked up): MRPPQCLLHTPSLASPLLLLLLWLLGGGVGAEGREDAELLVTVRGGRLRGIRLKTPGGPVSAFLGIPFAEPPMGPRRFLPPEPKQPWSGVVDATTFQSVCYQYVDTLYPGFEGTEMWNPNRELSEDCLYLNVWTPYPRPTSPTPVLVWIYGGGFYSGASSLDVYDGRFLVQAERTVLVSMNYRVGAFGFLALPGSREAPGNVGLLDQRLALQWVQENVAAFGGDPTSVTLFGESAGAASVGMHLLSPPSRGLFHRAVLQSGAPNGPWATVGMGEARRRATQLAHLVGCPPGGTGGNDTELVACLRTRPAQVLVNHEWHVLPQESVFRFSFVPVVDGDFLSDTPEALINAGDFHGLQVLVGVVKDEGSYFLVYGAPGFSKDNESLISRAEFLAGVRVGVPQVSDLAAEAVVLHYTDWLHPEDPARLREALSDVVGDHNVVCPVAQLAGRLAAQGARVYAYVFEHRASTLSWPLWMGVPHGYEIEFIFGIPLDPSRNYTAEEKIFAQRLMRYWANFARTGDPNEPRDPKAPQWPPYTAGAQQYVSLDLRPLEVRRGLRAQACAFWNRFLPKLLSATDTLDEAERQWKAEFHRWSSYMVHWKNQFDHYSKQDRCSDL
UniProt Q62351, sequence (whole entry, looked up): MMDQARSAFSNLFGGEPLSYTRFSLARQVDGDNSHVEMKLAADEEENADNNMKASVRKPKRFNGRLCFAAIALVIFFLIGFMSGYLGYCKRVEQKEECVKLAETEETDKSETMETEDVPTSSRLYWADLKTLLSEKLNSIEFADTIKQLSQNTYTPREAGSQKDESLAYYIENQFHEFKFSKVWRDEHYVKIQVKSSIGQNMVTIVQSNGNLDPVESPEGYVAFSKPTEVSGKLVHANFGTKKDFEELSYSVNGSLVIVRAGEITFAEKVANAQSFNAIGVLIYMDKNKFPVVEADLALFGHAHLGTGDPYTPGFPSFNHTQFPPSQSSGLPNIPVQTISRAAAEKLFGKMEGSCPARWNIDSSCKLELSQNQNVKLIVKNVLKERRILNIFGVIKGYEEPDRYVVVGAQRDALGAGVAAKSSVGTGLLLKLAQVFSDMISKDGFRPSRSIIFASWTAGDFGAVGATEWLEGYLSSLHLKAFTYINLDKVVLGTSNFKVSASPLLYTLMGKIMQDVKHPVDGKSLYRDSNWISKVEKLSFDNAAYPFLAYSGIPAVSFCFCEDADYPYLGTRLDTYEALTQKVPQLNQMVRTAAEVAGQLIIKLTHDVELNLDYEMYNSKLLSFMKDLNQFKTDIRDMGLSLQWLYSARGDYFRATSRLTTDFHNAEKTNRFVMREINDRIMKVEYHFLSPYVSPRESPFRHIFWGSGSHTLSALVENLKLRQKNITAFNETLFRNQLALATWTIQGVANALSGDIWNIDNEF
UniProt P08910, sequence (whole entry, looked up): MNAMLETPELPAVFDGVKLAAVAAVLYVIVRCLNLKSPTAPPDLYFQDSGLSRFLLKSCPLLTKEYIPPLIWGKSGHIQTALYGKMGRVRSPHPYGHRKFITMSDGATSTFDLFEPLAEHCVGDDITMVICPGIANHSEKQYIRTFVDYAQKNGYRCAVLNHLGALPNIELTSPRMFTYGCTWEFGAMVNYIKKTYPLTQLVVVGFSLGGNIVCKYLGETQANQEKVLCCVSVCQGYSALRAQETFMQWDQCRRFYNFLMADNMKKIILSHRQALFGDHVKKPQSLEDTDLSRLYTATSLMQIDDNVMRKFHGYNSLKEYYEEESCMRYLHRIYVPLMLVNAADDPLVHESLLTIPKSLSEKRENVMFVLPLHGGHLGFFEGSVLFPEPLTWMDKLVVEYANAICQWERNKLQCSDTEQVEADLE
UniProt P31424, sequence (whole entry, unmodified, looked up): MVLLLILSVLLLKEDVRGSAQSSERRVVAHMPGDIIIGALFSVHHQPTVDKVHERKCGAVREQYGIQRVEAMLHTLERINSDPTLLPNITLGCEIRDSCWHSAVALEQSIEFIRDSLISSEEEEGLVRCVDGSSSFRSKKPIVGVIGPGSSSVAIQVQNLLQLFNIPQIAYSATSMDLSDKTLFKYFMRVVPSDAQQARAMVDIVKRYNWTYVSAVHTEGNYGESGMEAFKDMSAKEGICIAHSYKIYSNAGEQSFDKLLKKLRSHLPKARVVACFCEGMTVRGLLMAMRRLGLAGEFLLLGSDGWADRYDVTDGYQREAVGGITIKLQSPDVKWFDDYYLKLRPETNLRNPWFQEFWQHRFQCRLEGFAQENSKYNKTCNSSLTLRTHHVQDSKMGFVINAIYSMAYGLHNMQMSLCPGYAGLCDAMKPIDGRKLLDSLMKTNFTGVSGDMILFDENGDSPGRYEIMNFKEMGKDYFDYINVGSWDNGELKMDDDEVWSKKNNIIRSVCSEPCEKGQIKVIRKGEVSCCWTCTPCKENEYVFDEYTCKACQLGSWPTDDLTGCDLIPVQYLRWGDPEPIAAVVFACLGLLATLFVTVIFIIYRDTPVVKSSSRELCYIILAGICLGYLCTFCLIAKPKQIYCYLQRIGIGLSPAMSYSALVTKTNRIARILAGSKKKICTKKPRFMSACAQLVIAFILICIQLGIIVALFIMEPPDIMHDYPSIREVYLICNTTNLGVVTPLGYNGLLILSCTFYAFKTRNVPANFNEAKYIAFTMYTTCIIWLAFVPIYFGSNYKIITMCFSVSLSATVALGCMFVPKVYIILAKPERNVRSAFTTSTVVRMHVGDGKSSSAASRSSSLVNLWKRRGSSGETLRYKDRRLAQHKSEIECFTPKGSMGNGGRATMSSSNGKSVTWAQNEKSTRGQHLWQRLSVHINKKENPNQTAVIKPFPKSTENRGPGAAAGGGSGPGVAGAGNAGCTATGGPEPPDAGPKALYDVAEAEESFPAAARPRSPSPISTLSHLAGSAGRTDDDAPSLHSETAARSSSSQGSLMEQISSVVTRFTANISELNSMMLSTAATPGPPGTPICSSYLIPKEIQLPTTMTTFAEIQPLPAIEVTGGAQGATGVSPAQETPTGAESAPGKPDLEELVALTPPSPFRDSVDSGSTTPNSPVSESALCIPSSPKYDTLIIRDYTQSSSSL
UniProt P51617, sequence (whole entry, looked up): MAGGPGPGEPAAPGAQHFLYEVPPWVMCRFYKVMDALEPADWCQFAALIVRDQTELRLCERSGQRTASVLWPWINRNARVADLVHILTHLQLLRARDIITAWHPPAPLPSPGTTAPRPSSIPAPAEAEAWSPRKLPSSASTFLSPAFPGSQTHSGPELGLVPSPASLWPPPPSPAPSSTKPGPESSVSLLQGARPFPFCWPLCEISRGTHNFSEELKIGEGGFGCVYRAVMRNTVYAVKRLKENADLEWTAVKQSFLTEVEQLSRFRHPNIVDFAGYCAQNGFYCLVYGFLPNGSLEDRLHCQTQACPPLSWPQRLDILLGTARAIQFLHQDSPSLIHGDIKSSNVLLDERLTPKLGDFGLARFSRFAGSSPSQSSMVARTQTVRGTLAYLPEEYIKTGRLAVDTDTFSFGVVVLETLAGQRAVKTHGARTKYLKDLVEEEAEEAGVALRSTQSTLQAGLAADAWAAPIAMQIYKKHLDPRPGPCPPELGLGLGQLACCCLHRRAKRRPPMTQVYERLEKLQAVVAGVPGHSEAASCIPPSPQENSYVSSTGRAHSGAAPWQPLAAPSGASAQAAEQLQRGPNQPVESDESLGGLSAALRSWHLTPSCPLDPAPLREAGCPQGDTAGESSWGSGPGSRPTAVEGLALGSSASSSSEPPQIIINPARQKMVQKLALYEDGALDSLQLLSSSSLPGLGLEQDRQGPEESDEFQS
UniProt P28472, sequence (whole entry, looked up): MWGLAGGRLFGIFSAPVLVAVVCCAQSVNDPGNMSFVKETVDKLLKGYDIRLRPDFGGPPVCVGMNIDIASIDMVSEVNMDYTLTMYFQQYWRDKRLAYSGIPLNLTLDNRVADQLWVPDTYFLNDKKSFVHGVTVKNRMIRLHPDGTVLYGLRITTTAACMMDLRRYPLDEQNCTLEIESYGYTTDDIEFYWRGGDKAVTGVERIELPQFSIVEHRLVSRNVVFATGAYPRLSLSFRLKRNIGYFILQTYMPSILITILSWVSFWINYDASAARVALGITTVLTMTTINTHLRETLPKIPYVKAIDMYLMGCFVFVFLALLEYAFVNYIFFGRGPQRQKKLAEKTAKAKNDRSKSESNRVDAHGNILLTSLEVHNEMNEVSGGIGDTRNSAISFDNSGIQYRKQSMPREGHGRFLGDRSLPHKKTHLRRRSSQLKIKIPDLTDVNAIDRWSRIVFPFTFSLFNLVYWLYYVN
UniProt Q9Y5N1, sequence (whole entry, looked up): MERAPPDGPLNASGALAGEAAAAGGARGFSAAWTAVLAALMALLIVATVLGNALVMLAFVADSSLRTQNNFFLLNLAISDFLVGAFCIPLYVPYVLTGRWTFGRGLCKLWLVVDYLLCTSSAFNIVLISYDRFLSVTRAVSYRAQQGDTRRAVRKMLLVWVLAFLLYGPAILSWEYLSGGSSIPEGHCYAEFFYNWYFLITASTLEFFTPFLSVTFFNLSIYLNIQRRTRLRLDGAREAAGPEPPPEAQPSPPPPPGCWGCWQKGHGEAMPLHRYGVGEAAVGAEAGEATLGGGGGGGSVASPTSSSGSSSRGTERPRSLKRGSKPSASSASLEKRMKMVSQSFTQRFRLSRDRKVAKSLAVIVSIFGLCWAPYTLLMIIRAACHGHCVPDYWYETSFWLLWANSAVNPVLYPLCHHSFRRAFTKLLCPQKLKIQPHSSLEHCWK

| SMILES | target | assay | system | setting | how to read | measurement | value |
| --- | --- | --- | --- | --- | --- | --- | --- |
| O=C(Nc1cccnn1)N1CCC(=Cc2cccc(Oc3ccc(C(F)(F)F)cn3)c2)CC1 | PTGFR (Homo sapiens, UniProt P43088) | radioligand binding, inhibitor | – | 10 µM, human, with: [3H]PGF2alpha | – | inhibition | 24% |
| CC[C@H](C)[C@H](NC(=O)CNC(=O)[C@@H](N)CCCCN)C(=O)N[C@@H](CC(C)C)C(=O)N[C@@H](CCCCN)C(=O)N[C@@H](CCCNC(=N)N)C(=O)N[C@@H](CCC(=O)O)C(=O)N[C@@H](CCCCN)C(=O)N[C@@H](CCCNC(=N)N)C(=O)N[C@@H](CC(C)C)C(=O)N[C@@H](CCCNC(=N)N)C(=O)N[C@@H](CCCNC(=N)N)C(=O)N[C@@H](CCCCN)C(=O)N[C@@H](CC(N)=O)C(=O)N[C@H](C(=O)N[C@@H](Cc1c[nH]cn1)C(=O)N[C@@H](Cc1c[nH]c2ccccc12)C(=O)N1CCC[C@H]1C(=O)N[C@@H](CCC(=O)O)C(=O)N[C@@H](CCC(=O)O)C(=O)NCC(=O)N[C@@H](CCCCN)C(=O)N[C@@H](CC(C)C)C(=O)N[C@@H](CCCNC(=N)N)C(=O)N[C@@H](CCC(=O)O)C(=O)N[C@@H](Cc1ccc(O)cc1)C(=O)N[C@@H](Cc1ccccc1)C(=O)N[C@@H](Cc1ccc(O)cc1)C(=O)N[C@@H](Cc1ccccc1)C(=O)N[C@@H](CCC(=O)O)C(=O)N[C@@H](CC(C)C)C(=O)N[C@@H](CC(=O)O)C(=O)N[C@@H](CCC(=O)O)C(=O)N[C@@H](C)C(=O)N[C@@H](CCC(=O)O)C(=O)N[C@@H](CCCNC(=N)N)C(=O)N[C@H](C(=O)N[C@@H](CC(N)=O)C(=O)N[C@H](C(=O)O)C(C)C)C(C)C)C(C)C | protein phosphatase 1 complexes | bead binding, competitive inhibitor, inhibitor bead pulldown LC-MS/MS, refers to: URI1 | HeLa and HEK293T cells, cell lysate | concentration not given | relative to: compound over control | log2 fold change | -7.45 |
| CC[C@H]1NC(=O)[C@@H]2CSC(=N2)[C@@H](Cc2ccccc2)N(C)C(=O)[C@@H]2CCCN2C(=O)[C@H](C(C)C)N(C)C(=O)[C@H](Cc2ccccc2)OC(=O)[C@H](C)[C@@H](C)NC(=O)[C@@H]([C@@H](C)O)NC(=O)[C@@H](CC(C)C)N(C)C(=O)[C@@H]2CSC1=N2 | Dipeptidyl peptidase 8 (Homo sapiens, UniProt Q6V1X1) | – | – | 20 µM | relative to: solvent control | remaining activity | 23% |
| COc1ccccc1Cn1ccnc1SCC(=O)Nc1cccc(C(F)(F)F)c1 | PFF0160c E182D | enzyme activity, DCIP colorimetric | – | – | relative to: E182D mutant over wild type | IC50 ratio | 6.5 |
| CC[C@@H](C)[C@@H](NC(=O)[C@@H](Cc1ccc(O)cc1)NC(=O)[C@H]1CCCN1C(=O)[C@@H](CCCNC(=N)N)NC(=O)[C@H](N)Cc1c[nH]cn1)C(=O)N[C@H](C)C(=O)N[C@H](Cc1c[nH]cn1)C(=O)N[C@H](CCCNC(=N)N)C(=O)N[C@H](CCCCNC(=O)c1cccc(S(=O)(=O)F)c1)C(=O)N[C@H](Cc1ccc(O)cc1)C(=O)N[C@H](CO)C(=O)N[C@H](Cc1ccccc1)C(N)=O | Transferrin receptor protein 1 (Tfrc, Mus musculus, UniProt Q62351) | flow cytometry | DC2.4 | 2 h, pH 7.4, unit not given | relative to: 0 h | surface TFRC expression | 1.02 |
| Cl.Cl.O=c1cc(NCCCNCc2scc(I)c2I)[nH]c2ccccc12 | PFF0160c E182D | enzyme activity, DCIP colorimetric | – | – | relative to: E182D mutant over wild type | IC50 ratio | 3.6 |
| COc1cc(N)c(Cl)cc1C(=O)NC1CN2CCC1CC2 (stereo not shown) | LPAR5 (Homo sapiens, UniProt Q9H1C0) | β-arrestin recruitment, TANGO luminescence, refers to: GPR92 | – | concentration not given | relative to: basal luminescence | log2 fold change | -0.156 |
| [2H]c1c([2H])c([C@]2([2H])CCCN2C(=O)C(C)(C)Oc2ccc3cn[nH]c3c2)c([2H])c([2H])c1C([2H])([2H])[2H] | ULK2 (Homo sapiens, UniProt Q8IYT8) | KINOMEscan | – | 1 µM | relative to: DMSO control | remaining binding | 86% |
| Clc1ccc(-c2ccc(Cl)cc2Cl)cc1 | AHR (Homo sapiens, UniProt P35869) | reporter gene, antagonist | AZ-AHR cells | 24 h, with: TCDD 4.5 nM | – | IC25 | 7 µM |
| COC(=O)[C@@]1(O)C[C@H]2O[C@]1(C)n1c3ccccc3c3c4c(c5c6ccccc6n2c5c31)C(=O)NC4 | MAPK3 (Homo sapiens, UniProt P27361) | ADP-Glo | – | 8.45 µM, with: MBP substrate | – | kinase activity | 101% and 104% and 129% |
| COc1ccccc1N1CCN(Cc2c(NC(C)=O)sc(C)c2C)CC1 | PFF0160c E182D | enzyme activity, DCIP colorimetric | – | – | relative to: E182D mutant over wild type | IC50 ratio | 1.6 |
| C[C@@H](NC(=O)c1ccc(C#Cc2cccc(F)c2)cn1)C(C)(C)O | Grm5 (Rattus norvegicus, UniProt P31424, A809V) | calcium mobilization, inhibitor | cells expressing MPEP-site mutant receptor | concentration not given | – | agonist response | inhibited |
| Nc1c2c(nc3sc4c(c13)CCCC4)CCCC2 | Glideosome-associated protein 50 (GAP50, Plasmodium falciparum, UniProt Q8I2X3) | binding, surface plasmon resonance | – | 1:1 binding model | – | kon | 47700 M⁻¹ s⁻¹ |
| C[C@H]1COCCN1c1nc(NCc2cccnc2C(F)(F)F)c2cccnc2n1 | ADRA1A (Homo sapiens, UniProt P35348) | binding | – | CEREP panel | – | IC50 | > 100 µM |
| CN1CCN(c2cc(-c3ccncc3)c(-c3ccc4ccccc4c3)nn2)CC1 | HRH3 (Homo sapiens, UniProt Q9Y5N1) | agonist, FLIPR | – | 12.5 µM | – | activation | -1.5% |
| Nc1ncnc2c1ncn2[C@@H]1O[C@H](COP(=O)(O)OP(=O)(O)OP(=O)(O)O)[C@@H](O)[C@H]1O | dnaK (Escherichia coli, UniProt P0A6Y8, E213C/T22C) | conformational change, inducer, stopped-flow fluorescence quenching | – | linker insertion, slow phase | – | rate constant | 15.5 s⁻¹ |
| O=C(c1ccc(Cl)cc1)N1CCN2C(=O)N(OC(=O)N3CCOc4ccccc43)C(=O)C2C1 (stereo not shown) | Monoacylglycerol lipase ABHD2 (ABHD2, Homo sapiens, UniProt P08910) | enzyme activity, inhibitor, MS-based ABPP | SW-620 in situ | 10 µM, 2 h, 37 °C | relative to: compound over DMSO, lower = stronger inhibition | median ratio | 1 |
| COc1ccc(N2C(=O)N(c3c(C)cccc3Cl)Cc3cnc(Nc4ccc(C5CCN(C)CC5)cc4OC)nc32)nc1 | PKN2 (Homo sapiens, UniProt Q16513) | kinase activity | – | 0.5 µM | – | inhibition | 3% |
| Clc1cc2c(cc1Cl)Oc1cc(Cl)c(Cl)cc1O2 | Uncharacterized protein (Takifugu rubripes, UniProt Q4JHL3) | reporter gene, agonist, dual-luciferase | COS-7 | 24 h | – | EC20 | 0.00066 ± 0.00062 µM |
| O=C(O)CCC(=O)C(=O)O | HIF1AN (Homo sapiens, UniProt Q9NWT6, E105A) | cosubstrate | – | pH 7.00, 37.0 °C, mutant E105A, with: CTAD peptide 100 µM, cosubstrate 217 µM | – | Km | 9 ± 2 µM |
| O=C1NC(=O)C(c2ccccc2)(c2ccccc2)N1 | GABA-A receptor alpha-1/beta-3, with gamma-2 subunit (GABRA1/GABRB3, Homo sapiens, UniProt P14867+P28472) | [3H]muscimol binding, positive modulator | – | 300 µM, unit not given, with: [3H]muscimol 2 nM | relative to: etomidate 10 µM | enhancement | 0.3 |
| CN(C)CCOC(C)(c1ccccc1)c1ccc(Cl)cc1 (stereo not shown) | ACHE | – | biochemical | concentration not given | – | activity class | inactive |
| Nc1ncc(-c2nc(N3CCOCC3)nc(N3CCOCC3)n2)c(C(F)F)n1 | KIT (Homo sapiens, UniProt P10721, T670I/V559D) | KINOMEscan | – | 10 µM | – | remaining binding | 26% |
| Oc1ccc2ccc3cccc4ccc1c2c34 | Aryl hydrocarbon receptor (Danio rerio, UniProt Q9YGV3) | reporter gene, agonist, luciferase reporter | ZF-4 | 370.37 µM | relative to: vehicle control | fold change | 1.89 |
| C[C@H]1CN(c2n[nH]c3nc(N[C@H]4CC[C@H](NS(=O)(=O)CCC(F)(F)F)CC4)ncc23)CCO1 | IRAK1 (Homo sapiens, UniProt P51617) | inhibitor, Kinobeads competition profiling | – | 20 µM | relative to: vehicle | relative abundance | 1.15 |
| CO/N=C1\C[C@]2(C[C@@H]3C[C@@H](C/C=C(\C)C[C@@H](C)/C=C/C=C4\CO[C@@H]5[C@H](O)C(C)=C[C@@H](C(=O)O3)[C@]45O)O2)O[C@H](/C(C)=C/C(C)C)[C@H]1C | Bile acid receptor (NR1H4, Homo sapiens, UniProt Q96RI1) | coactivator recruitment, antagonist, TR-FRET | – | NG, with: 50 µM CDCA | – | efficacy | 13.9 ± 0.92% |
| CC(COc1ccccc1)NC(C)C(O)c1ccc(O)cc1 (stereo not shown) | ACHE | – | biochemical | concentration not given | – | activity class | inactive |
| CC12CCC(CC1)C(C)(C)O2 | 1,8-cineole 2-endo-monooxygenase (cinA, Citrobacter braakii, UniProt Q8VQF6, N242A) | NADPH turnover | – | concentration not given, N242A mutant | relative to: wild type | relative activity | ~30% |

A few entries again:
| SMILES | target | assay | system | setting | how to read | measurement | value |
| --- | --- | --- | --- | --- | --- | --- | --- |
| O=C(O)CCC(=O)C(=O)O | HIF1AN (Homo sapiens, UniProt Q9NWT6, E105A) | cosubstrate | – | pH 7.00, 37.0 °C, mutant E105A, with: CTAD peptide 100 µM, cosubstrate 217 µM | – | Km | 9 ± 2 µM |
| O=C1NC(=O)C(c2ccccc2)(c2ccccc2)N1 | GABA-A receptor alpha-1/beta-3, with gamma-2 subunit (GABRA1/GABRB3, Homo sapiens, UniProt P14867+P28472) | [3H]muscimol binding, positive modulator | – | 300 µM, unit not given, with: [3H]muscimol 2 nM | relative to: etomidate 10 µM | enhancement | 0.3 |
| CN(C)CCOC(C)(c1ccccc1)c1ccc(Cl)cc1 (stereo not shown) | ACHE | – | biochemical | concentration not given | – | activity class | inactive |
| Nc1ncc(-c2nc(N3CCOCC3)nc(N3CCOCC3)n2)c(C(F)F)n1 | KIT (Homo sapiens, UniProt P10721, T670I/V559D) | KINOMEscan | – | 10 µM | – | remaining binding | 26% |
